Measured values from different studies.
Parts stem from different laboratories: compare values within a part only. Values joined by “and” are separate records of one study, mostly repeats; a detail may differ.
Chain of UniProt P28223 (whole entry, looked up): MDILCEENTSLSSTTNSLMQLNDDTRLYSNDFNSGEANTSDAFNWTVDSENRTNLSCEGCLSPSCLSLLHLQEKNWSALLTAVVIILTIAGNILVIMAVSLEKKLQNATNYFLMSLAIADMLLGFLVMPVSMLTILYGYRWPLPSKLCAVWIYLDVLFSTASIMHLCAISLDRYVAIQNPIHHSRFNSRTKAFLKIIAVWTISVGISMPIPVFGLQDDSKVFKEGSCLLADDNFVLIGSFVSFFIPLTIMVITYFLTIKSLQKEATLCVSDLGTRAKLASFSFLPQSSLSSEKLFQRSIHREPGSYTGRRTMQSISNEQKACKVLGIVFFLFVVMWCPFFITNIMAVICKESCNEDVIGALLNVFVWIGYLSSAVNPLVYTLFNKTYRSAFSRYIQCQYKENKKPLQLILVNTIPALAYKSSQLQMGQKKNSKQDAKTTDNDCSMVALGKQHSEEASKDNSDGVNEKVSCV
Chain of UniProt P41143 (whole entry, looked up): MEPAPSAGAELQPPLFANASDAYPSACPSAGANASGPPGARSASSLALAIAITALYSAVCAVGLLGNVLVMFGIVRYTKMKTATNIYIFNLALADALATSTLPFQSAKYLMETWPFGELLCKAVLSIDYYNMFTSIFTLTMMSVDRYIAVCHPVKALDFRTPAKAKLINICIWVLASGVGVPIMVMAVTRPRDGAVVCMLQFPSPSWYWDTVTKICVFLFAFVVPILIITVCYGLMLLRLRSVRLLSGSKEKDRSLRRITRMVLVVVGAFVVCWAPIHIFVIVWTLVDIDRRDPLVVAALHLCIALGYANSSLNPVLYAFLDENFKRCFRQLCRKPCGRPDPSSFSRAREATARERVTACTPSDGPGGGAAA
Chain of UniProt P11229 (whole entry, looked up): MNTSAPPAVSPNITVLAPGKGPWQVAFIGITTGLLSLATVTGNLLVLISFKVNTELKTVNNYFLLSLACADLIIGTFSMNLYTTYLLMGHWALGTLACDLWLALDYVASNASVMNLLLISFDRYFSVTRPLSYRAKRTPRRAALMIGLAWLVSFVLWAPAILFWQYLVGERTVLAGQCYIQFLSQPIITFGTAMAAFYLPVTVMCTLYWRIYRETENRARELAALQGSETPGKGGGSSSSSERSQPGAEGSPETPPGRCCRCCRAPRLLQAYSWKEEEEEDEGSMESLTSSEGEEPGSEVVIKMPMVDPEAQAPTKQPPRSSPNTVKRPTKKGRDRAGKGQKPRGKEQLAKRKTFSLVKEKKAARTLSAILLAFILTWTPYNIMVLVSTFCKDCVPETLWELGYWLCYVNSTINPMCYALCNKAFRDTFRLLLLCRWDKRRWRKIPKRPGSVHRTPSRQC
Chain of UniProt P28335 (whole entry, looked up): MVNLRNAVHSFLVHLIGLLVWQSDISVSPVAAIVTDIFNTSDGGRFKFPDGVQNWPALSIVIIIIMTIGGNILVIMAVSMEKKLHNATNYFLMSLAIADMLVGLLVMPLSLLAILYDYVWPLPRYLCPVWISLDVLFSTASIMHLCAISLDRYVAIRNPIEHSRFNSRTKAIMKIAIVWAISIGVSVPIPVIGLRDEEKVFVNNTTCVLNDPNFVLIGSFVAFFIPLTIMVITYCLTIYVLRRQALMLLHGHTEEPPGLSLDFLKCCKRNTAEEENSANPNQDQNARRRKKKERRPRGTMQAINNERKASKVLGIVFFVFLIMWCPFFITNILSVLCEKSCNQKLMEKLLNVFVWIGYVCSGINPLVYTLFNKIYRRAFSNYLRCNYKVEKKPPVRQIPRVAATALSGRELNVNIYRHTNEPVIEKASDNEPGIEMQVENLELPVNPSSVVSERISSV

Set 1 — observed: binding; method: radioligand binding; concentration: 10 µM
Structure (SMILES): O=C(O)[C@@H]1[C@@H](Cn2nnc3ccccc3c2=O)CC[C@H]1C(=O)c1ccc(OCCC2CCOCC2)cc1
5-hydroxytryptamine receptor 2A (HTR2A, Homo sapiens, UniProt P28223) — inhibition: 18.4%.
For Delta-type opioid receptor (OPRD1, Homo sapiens, UniProt P41143): inhibition read 15.9%.
The inhibition was 21% (5-hydroxytryptamine receptor 2C (HTR2C, Homo sapiens, UniProt P28335)).
The inhibition was 6.4% (Muscarinic acetylcholine receptor M1 (CHRM1, Homo sapiens, UniProt P11229)).

Set 2 — observed: enzyme activity; action: inhibitor; concentration: 10 µM
Target: Calcium/calmodulin-dependent protein kinase type II subunit alpha (CAMK2A, Homo sapiens, UniProt Q9UQM7)
Chain of UniProt Q9UQM7 (whole entry, looked up): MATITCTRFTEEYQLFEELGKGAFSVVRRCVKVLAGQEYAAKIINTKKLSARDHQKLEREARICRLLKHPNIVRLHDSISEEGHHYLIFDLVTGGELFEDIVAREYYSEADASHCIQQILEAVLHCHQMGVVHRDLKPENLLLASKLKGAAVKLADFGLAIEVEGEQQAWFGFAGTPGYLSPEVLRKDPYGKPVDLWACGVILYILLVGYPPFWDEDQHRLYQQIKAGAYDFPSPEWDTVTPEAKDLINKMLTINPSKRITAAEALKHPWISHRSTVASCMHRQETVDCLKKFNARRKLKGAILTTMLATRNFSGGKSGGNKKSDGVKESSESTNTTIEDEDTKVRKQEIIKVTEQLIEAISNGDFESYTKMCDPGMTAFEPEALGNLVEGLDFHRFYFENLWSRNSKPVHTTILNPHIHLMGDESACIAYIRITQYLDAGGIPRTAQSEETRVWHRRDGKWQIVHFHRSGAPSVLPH
C=CCc1cc(OC)c2c(c1)OCO2 gave an inhibition of -12%.
C[C@]12CCC(=O)C=C1CC[C@@H]1[C@@H]2C(=O)C[C@]2(C)C(=O)CC[C@@H]12 gave an inhibition of -10%.
The inhibition of COc1cc2c(cc1O)C[C@H]1c3c(cc(O)c(OC)c3-2)CCN1C is reported as -29%.
The inhibition of Cc1cc(C2=NOC(c3cc(Cl)cc(Cl)c3)(C(F)(F)F)C2)ccc1C(=O)NCC(=O)NCC(F)(F)F (stereo not drawn) is reported as -6%.
C/C=C1/CN2CCc3c([nH]c4ccccc34)[C@@H]2C[C@@H]1/C(=C/OC)C(=O)OC gave an inhibition of -11%.
CC[C@]12C=CCN3CC[C@@]4(c5ccc(OC)cc5N(C)[C@H]4[C@@](O)(C(=O)OC)[C@@H]1OC(C)=O)[C@@H]32 gave an inhibition of 10%.
The inhibition of CC(=O)C1=C(O)[C@@H]2[C@H]3c4c[nH]c5cccc(c45)C[C@H]3C(C)(C)N2C1=O is reported as 2%.

Set 3 — observed: RNA clamping; method: fluorescence polarization; concentration: concentration not given; notes: mean of two replicates; together with: FAM-labelled poly r(AG)8 RNA
Target: Eukaryotic initiation factor 4A-I (EIF4A1, Homo sapiens, UniProt P60842)
Chain of UniProt P60842 (whole entry, looked up): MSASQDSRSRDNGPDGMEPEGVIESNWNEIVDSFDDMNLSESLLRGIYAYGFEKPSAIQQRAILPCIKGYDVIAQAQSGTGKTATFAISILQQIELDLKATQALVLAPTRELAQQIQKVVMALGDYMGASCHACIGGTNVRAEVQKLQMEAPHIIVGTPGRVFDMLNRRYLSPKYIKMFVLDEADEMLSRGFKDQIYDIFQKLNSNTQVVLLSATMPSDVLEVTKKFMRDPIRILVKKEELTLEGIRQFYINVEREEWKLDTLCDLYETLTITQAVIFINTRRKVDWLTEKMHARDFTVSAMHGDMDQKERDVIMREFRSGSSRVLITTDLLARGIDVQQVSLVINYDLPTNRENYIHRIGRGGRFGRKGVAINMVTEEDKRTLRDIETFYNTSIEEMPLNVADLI
For [2H]C([2H])([2H])C1=N[C@@]2(O)[C@H](C(=O)OC)[C@@H](c3ccccc3)[C@]3(c4ccc(OC)cc4)Oc4cc(OC)cc(OC)c4[C@]23N1, “fluorescence polarization change” read 71.9 mP.
COc1ccc([C@@]23Oc4cc(OC)cc(OC)c4[C@]2(O)[C@H](O)C[C@H]3c2ccccc2)cc1 — result for “fluorescence polarization change”: 71.3 mP.
COc1ccc([C@@]23Oc4cc(OC)cc(OC)c4[C@]2(OC)c2nc(-c4ccccc4)nc(OC)c2[C@H]3c2ccccc2)cc1 — result for “fluorescence polarization change”: -4.4 mP.
For COC(=O)[C@@H]1[C@@H](c2ccccc2)[C@]2(c3ccc(OC)cc3)Oc3cc(OC)cc(OC)c3[C@@]23OC(C)=N[C@@]13O, “fluorescence polarization change” read 39.6 mP.
COc1ccc([C@@]23Oc4cc(OC)cc(OC)c4[C@]2(O)c2nc(-c4ccc(Cl)nc4)[nH]c(=O)c2[C@H]3c2ccccc2)cc1: “fluorescence polarization change” 28 mP.
CCOC(=O)COc1nc(-c2ccccc2)nc2c1[C@@H](c1ccccc1)[C@]1(c3ccc(OC)cc3)Oc3cc(OC)cc(OC)c3[C@]21O: “fluorescence polarization change” 8.7 mP.

Other studies, line by line
CNC(=O)c1ccc(-c2cnn3ccc(C(=O)N(C)c4ccc(Cl)c(C(=O)OC)c4)cc23)cc1 — result for “fecal consistency score”: 2 and 1 and 3 (Cryptosporidium parvum; neonatal calves; dose not given, day 5 post-treatment; direction not given).

Excerpt of the above (set 1):
The inhibition was 6.4% (Muscarinic acetylcholine receptor M1 (CHRM1, Homo sapiens, UniProt P11229)).
The inhibition was 21% (5-hydroxytryptamine receptor 2C (HTR2C, Homo sapiens, UniProt P28335)).
